Published values gathered from unrelated publications.
Compare with care: the assays were run in different laboratories. Numbers after ± are the reported error.

For `CCCCCCCCCCCCCC[N+](C)(C)C`, the Kd was 2 µM (GH3; Na+ channel; external application, repetitive pulses).
With `C[C@@H]1CN(C(=O)c2ccc(NC(=O)c3cc(O[C@H](C)c4c(Cl)ccc(F)c4Cl)c(N)nn3)cc2)C[C@H](C)N1` the Emax was 100% (Ba/F3 EML4-ALK variant 1 S1206Y; cell viability).
For `O=C(C[C@@H](C(F)F)n1ccc(F)n1)N1CCC(O)(Cn2cnc3c(cnn3-c3ccc(F)cc3)c2=O)CC1`, the apoptotic cells was 11.5% (CHP-212 resistant; annexin V/PI flow cytometry; 1 µM, 48 h).
The toxicity of `COc1ccc(-n2nc(C(C)=O)s/c2=N\N=C(/C)c2ccc(NC(=O)c3ccccc3)cc2)cc1` is reported as 74.4% (HepG2; 1.25 µM).
`O=C(c1ccc(OCCN2CCCCC2)cc1)c1c(-c2ccc(O)cc2)sc2cc(O)ccc12` has an EC50 of 10 µM (Toxoplasma gondii; parasite growth, luciferase reporter; HFF, tachyzoite; 72 h).
`C=CCn1c(=O)c2cnc(Nc3ccc(N4CCN(C)CC4)cc3)nc2n1-c1ccc2c(n1)[C@@](O)(CC)CC2` has a γH2AX-positive cells of 27.5% (Kuramochi; flow cytometry; concentration not given, G1 phase).
The inhibition of `C=CC(=O)c1cccnc1Nc1cc(C(F)(F)F)ccc1OC` is reported as 98% (MCF7; reporter gene, measured: TEAD luciferase; 100 µM).
Under “Ucp1, PGC1α, AMPKα phosphorylation”, `O=C(O)c1ccc2c3c1cccc3c(=O)n1c3ccccc3nc21` is recorded as “decreased” (C3H10T1/2-derived adipocytes overexpressing Dlat-Flag; 10 µM, 24 h; reference: Dlat overexpression without compound).
For `Cn1cc(Nc2nccc(-c3ccc4c(c3)CN(C3COC3)CC[C@H]4NC(=O)c3cn(C(C)(C)C)nn3)n2)cn1`, “pathway activation z-score” read 1.13 (mouse splenic B cells; measured: Angiopoietin signalling; 30 mg/kg, IgD-activated in vivo; reference: vehicle, direction not given).
Under “TAZ band intensity”, `CC/C(=N\NC(=O)C(C)Nc1ccccc1)c1ccc(O)c(C)c1O` (stereo not shown) is recorded as 0.24 ± 0.03 (SK-OV-3; Western blot; 10 µM, 6 h, 3D gellan gum culture, unit not given; reference: DMSO).
`c1ccc2[nH]ccc2c1`: “mRNA level, LS mean” 5.67 counts per million (HCT-8; RNA-seq, measured: NGFR; concentration not given).
`Cn1cc(-c2ccc(-c3cncc(Cl)c3N3CCC4(CCNC4=O)CC3)cc2)cn1`: “log2 fold change” -2.64 (COLO 205; gene expression, microarray, measured: NRF1 mRNA; concentration not given, 2 h; reference: untreated cells).
`CCn1cc(-c2cc(Cn3ccoc3=N)cc3c2CCN([C@@H](C)c2cc(OC)ccn2)C3=O)c(C(F)(F)F)n1` gave an EC50 of 3.23 µM (SNU1066; cell growth; 120 h).
Under NET formation, `N=C(CCl)NCCC[C@H](NC(=O)c1ccccc1)C(N)=O` is recorded as “inhibited” (MRL/lpr mouse bone marrow neutrophils; concentration not given, 4 h, 8-week-old donors, added: PMA).
For `Cc1cc(Nc2ncc(Cl)c(Nc3ccccc3S(=O)(=O)C(C)C)n2)c(OC(C)C)cc1C1CCNCC1`, “log2 fold change” read -2.41 (CLB-GE; phosphoproteomics LC-MS/MS, measured: RBM4 phosphorylation; 200 nM, 60 min; reference: untreated).
With `COc1c(C)c(OS(=O)(=O)c2ccc3ccccc3c2)c(C)c(O)c1C(=O)/C=C/c1ccccc1` the selectivity index was 1.44 (FaDu; SRB; reference: normal over FaDu IC50).
`CCn1cc(-c2cc(Cn3ccnc3)cc3c2CCN([C@H](c2cc(OC)ccn2)C2CC2)C3=O)c(C(F)(F)F)n1` has an EC50 of 29.5 µM (COV362; cell growth, inhibitor; 120 h).
The EC50 of `C=C1C(=O)O[C@H]2[C@H]1CC/C(C)=C/CC[C@@]1(C)O[C@@H]21` is reported as 1.64 µM (Toxoplasma gondii; parasite growth; HFF, bradyzoite, alkaline-induced).
`CCCCc1oc2ccc(NS(C)(=O)=O)cc2c1C(=O)c1ccc(OCCCN(CCCC)CCCC)cc1` gave a fold change of 2.1 fold (human embryonic stem cell aggregates; mRNA level, microarray, measured: UBL3; 0.5 µM, 120 h; reference: untreated, up-regulated).
`C#C[C@@]1(O)[C@@H](CO)O[C@@H](n2cc(F)c3c(N)ncnc32)[C@@H]1O` has a TGI of -5.18 log M (NCI60 panel; cell growth; mean over panel).
`CSc1nc(-c2ccc(Cl)cc2)c2c(NC(=O)c3ccccc3)nnc-2[nH]1` gave a cell growth of 92.7% (Malme-3M; SRB; 10 µM, NCI60 single-dose screen; reference: untreated).
Under “cells in G0/G1 phase”, `NC1(c2ccc(-c3nc4ccn5c(=O)[nH]nc5c4cc3-c3ccccc3)cc2)CCC1` is recorded as 47.1% (MDA-MB-468; flow cytometry, PI staining; EC60 concentration, 72 h, DMSO 39.2).

Excerpt of the above:
For `Cn1cc(Nc2nccc(-c3ccc4c(c3)CN(C3COC3)CC[C@H]4NC(=O)c3cn(C(C)(C)C)nn3)n2)cn1`, “pathway activation z-score” read 1.13 (mouse splenic B cells; measured: Angiopoietin signalling; 30 mg/kg, IgD-activated in vivo; reference: vehicle, direction not given).
